Published values pooled from the literature.
± gives the spread as reported.
Chain of UniProt Q12809 (whole entry, looked up): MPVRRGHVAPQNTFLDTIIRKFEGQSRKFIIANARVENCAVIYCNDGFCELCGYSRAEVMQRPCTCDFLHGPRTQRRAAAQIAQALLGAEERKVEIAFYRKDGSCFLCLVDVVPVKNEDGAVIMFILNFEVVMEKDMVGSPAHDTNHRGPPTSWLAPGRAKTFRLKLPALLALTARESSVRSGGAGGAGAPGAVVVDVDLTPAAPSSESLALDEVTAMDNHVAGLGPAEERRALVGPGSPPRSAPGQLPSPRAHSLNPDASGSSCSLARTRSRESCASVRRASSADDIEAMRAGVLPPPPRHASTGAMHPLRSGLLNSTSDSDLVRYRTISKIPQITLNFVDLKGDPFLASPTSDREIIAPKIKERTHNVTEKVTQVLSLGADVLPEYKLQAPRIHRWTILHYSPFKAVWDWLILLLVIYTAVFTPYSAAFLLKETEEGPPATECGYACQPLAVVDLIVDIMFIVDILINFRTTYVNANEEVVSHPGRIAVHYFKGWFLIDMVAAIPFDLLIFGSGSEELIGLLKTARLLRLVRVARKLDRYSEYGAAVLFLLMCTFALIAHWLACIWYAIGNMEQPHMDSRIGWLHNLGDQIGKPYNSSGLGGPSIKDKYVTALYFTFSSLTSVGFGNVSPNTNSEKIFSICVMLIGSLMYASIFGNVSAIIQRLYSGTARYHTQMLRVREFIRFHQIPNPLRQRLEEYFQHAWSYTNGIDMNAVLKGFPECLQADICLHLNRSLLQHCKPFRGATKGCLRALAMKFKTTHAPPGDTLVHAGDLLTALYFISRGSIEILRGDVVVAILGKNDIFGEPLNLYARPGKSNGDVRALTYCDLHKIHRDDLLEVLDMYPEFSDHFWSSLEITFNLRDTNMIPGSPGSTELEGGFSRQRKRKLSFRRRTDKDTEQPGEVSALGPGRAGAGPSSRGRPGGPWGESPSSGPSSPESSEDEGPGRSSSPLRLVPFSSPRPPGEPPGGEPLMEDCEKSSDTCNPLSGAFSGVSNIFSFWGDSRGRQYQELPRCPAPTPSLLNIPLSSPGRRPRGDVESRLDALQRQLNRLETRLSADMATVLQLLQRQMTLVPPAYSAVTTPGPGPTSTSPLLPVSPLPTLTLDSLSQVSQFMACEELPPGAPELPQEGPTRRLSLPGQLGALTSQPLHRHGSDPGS

`Cc1cc(C)c(CNC(=O)c2cc(Cl)c3c(c2C)O[C@@](C)([C@H]2CC[C@H](N(C)C)CC2)O3)c(=O)[nH]1` — result for “COVID-19 pneumonia incidence”: 0% (human, relapsed/refractory NHL; concentration not given, treatment-related TEAEs, grade 3).
The AUC of `O=C[C@H](C[C@@H]1CCNC1=O)NC(=O)[C@H](CC1CCCCC1)NC(=O)c1cc2ccccc2[nH]1` is reported as 8.89 µg·h/mL (rats, plasma; intravenous, 8 mg/kg).
Under “dry mouth TEAE, Severe severity”, `Cn1cnc(Cn2c(=O)[nH]/c(=N\c3cc4cn(C)nc4cc3Cl)n(Cc3cc(F)c(F)cc3F)c2=O)n1` is recorded as 0% (human, severe renal impairment; oral, 375 mg).
`Cn1cnc(Cn2c(=O)[nH]/c(=N\c3cc4cn(C)nc4cc3Cl)n(Cc3cc(F)c(F)cc3F)c2=O)n1` gave an AUC(0-tau) of 554 µg·h/mL (healthy Japanese adults, plasma; oral, 750 mg, day 1, fasted, with prednisolone).
For `Nc1ncnc2c([C@@H]3N[C@H](CO)[C@@H](O)[C@H]3O)c[nH]c12`, “supernatant virus titre” read 5e+06 PFU/mL (Marburg marburgvirus; virus production; HeLa, Musoke; 1.6 µM).
`C[C@@H]1Cc2c(Cl)cc(C(=O)N[C@@H](Cc3ccccc3)C(=O)O)c(O)c2C(=O)O1`: “body weight to egg weight ratio” 71.6 ± 4.2 (chicken embryo; in ovo injection, 0.75 µg/egg).
With `CC(C)C(=O)OC[C@H]1O[C@@H](n2ccc(NO)nc2=O)[C@H](O)[C@@H]1O` the remaining compound was 0% (rat plasma; 100 µM, 1 h, with: loperamide 100 µM).
Under “treatment-emergent adverse events”, `CC[C@H](C)[C@H](NC(=O)[C@H](CC(C)C)NC(=O)[C@H](Cc1c[nH]c2ccccc12)NC(=O)[C@H](CCC(N)=O)NC(=O)[C@@H](NC(=O)[C@H](Cc1ccccc1)NC(=O)[C@H](C)NC(=O)[C@H](CCCCNC(=O)COCCOCCNC(=O)COCCOCCNC(=O)CC[C@H](NC(=O)CCCCCCCCCCCCCCCCCCC(=O)O)C(=O)O)NC(=O)[C@H](CCC(N)=O)NC(=O)[C@H](C)NC(=O)[C@@H](NC(=O)[C@H](CCCCN)NC(=O)[C@H](CC(=O)O)NC(=O)[C@H](CC(C)C)NC(=O)C(C)(C)NC(=O)[C@@H](NC(=O)[C@H](CO)NC(=O)[C@H](Cc1ccc(O)cc1)NC(=O)[C@H](CC(=O)O)NC(=O)[C@H](CO)NC(=O)[C@@H](NC(=O)[C@H](Cc1ccccc1)NC(=O)[C@@H](NC(=O)CNC(=O)[C@H](CCC(=O)O)NC(=O)C(C)(C)NC(=O)[C@@H](N)Cc1ccc(O)cc1)[C@@H](C)O)[C@@H](C)O)[C@@H](C)CC)[C@@H](C)CC)C(C)C)C(=O)N[C@@H](C)C(=O)NCC(=O)NCC(=O)N1CCC[C@H]1C(=O)N[C@@H](CO)C(=O)N[C@@H](CO)C(=O)NCC(=O)N[C@@H](C)C(=O)N1CCC[C@H]1C(=O)N1CCC[C@H]1C(=O)N1CCC[C@H]1C(=O)N[C@@H](CO)C(N)=O` is recorded as 20% (healthy human; 1.0 mg, single ascending dose).
Under “fast deactivation time constant”, `CC(=O)c1c(O)c(C)c(O)c(Cc2c(O)c3c(c(C(=O)/C=C/c4ccccc4)c2O)OC(C)(C)C=C3)c1O` is recorded as 57 ± 5 ms (KCNH2 (Homo sapiens, UniProt Q12809); ion current, whole-cell patch clamp; HEK293 expressing hERG1; 15 µM, at -120 mV).
For `C[C@@H]1COCCN1c1cc(C2([S@](C)(=N)=O)CC2)nc(-c2cc[nH]c3nccc2-3)n1`, the COVID-19 incidence was 16.7% (Japanese advanced solid tumour patients; oral, 240 mg twice daily, any grade).
`CC[C@H](C)[C@H](NC(=O)[C@H](CC(C)C)NC(=O)[C@H](Cc1c[nH]c2ccccc12)NC(=O)[C@H](CCC(N)=O)NC(=O)[C@@H](NC(=O)[C@H](Cc1ccccc1)NC(=O)[C@H](C)NC(=O)[C@H](CCCCNC(=O)COCCOCCNC(=O)COCCOCCNC(=O)CC[C@H](NC(=O)CCCCCCCCCCCCCCCCCCC(=O)O)C(=O)O)NC(=O)[C@H](CCC(N)=O)NC(=O)[C@H](C)NC(=O)[C@@H](NC(=O)[C@H](CCCCN)NC(=O)[C@H](CC(=O)O)NC(=O)[C@H](CC(C)C)NC(=O)C(C)(C)NC(=O)[C@@H](NC(=O)[C@H](CO)NC(=O)[C@H](Cc1ccc(O)cc1)NC(=O)[C@H](CC(=O)O)NC(=O)[C@H](CO)NC(=O)[C@@H](NC(=O)[C@H](Cc1ccccc1)NC(=O)[C@@H](NC(=O)CNC(=O)[C@H](CCC(=O)O)NC(=O)C(C)(C)NC(=O)[C@@H](N)Cc1ccc(O)cc1)[C@@H](C)O)[C@@H](C)O)[C@@H](C)CC)[C@@H](C)CC)C(C)C)C(=O)N[C@@H](C)C(=O)NCC(=O)NCC(=O)N1CCC[C@H]1C(=O)N[C@@H](CO)C(=O)N[C@@H](CO)C(=O)NCC(=O)N[C@@H](C)C(=O)N1CCC[C@H]1C(=O)N1CCC[C@H]1C(=O)N1CCC[C@H]1C(=O)N[C@@H](CO)C(N)=O` gave a Tmax of 24 h (human, plasma; subcutaneous, 15.0 mg once weekly, week 23, multiple doses).
Under “remaining fibrinogen γ chain”, `CNC(=O)[C@@H](NC(=O)[C@H](CC(C)C)[C@H](O)C(=O)NO)C(C)(C)C` is recorded as 0.436 (human fibrinogen; SDS-PAGE; Daboia russelii; concentration not given, unit not given, with: MH venom; relative to: untreated fibrinogen).
`CC(C)(C)[C@H](NC(=O)C(F)(F)F)C(=O)N1C[C@H]2[C@@H]([C@H]1C(=O)N[C@H](C#N)C[C@@H]1CCNC1=O)C2(C)C` gave a Cmax of 1540 ng/mL (healthy humans, fasted, plasma; oral, 1500 mg single dose).
`C[C@H]1CN(C(=O)CC#N)[C@]12CCN(c1ncnc3[nH]ccc13)C2`: “participants with positive SARS-CoV-2 test” 0% (human; oral, 12 mg single dose).
`Cc1cc(C)c(CNC(=O)c2cc(Cl)c3c(c2C)O[C@@](C)([C@H]2CC[C@H](N(C)C)CC2)O3)c(=O)[nH]1`: “grade ≥3 adverse event COVID-19” 4.2% (relapsed/refractory NHL patients; oral, 200 mg once daily, onset after cycle 1 day 1).
